Measurements from different studies.
± gives the spread as reported.

C[C@H](N)C(=O)N1C[C@H](CCCB(O)O)[C@](N)(C(=O)O)C1  Tmax (human, plasma; oral, dose not given, multiple dosing): 2 to 4 h
CN1C(=O)[C@@H](NC(=O)c2nnc(Cc3ccccc3)[nH]2)COc2ccccc21  Tmax (human male, plasma; oral, 60 mg twice daily, day 14): 1.5 h
COC(=O)[C@H](c1ccccc1Cl)N1CCC(S)/C(=C\C(=O)O)C1 (stereo partly drawn)  Tmax (human patients, CYP3A4 wt/wt, plasma; oral, 75 mg clopidogrel daily, day 7, median): 1 h
CNc1nc(Nc2ccc(-n3cnc(C)n3)c(OC)c2)nc2c1CC[C@H]2c1ccc(F)cc1  Tmax (elderly humans, both sexes, plasma; oral, 900 mg single dose): 5 h
CC(C)(Sc1ccncc1-c1ccc(C#N)c2ccccc12)C(=O)O  Tmax (healthy human males, plasma; oral, 10 mg once daily, day 14, with: febuxostat 40 mg once daily): 4 h
COC(=O)c1ccc2c(c1)NC(=O)/C2=C(\Nc1ccc(N(C)C(=O)CN2CCN(C)CC2)cc1)c1ccccc1  Tmax (healthy human controls matched to Child-Pugh A, plasma; oral, 100 mg single dose, median): 4 h
CCCC[C@H](NC(C)=O)C(=O)N[C@H]1CC(=O)NCCCC[C@@H](C(=O)O)NC(=O)[C@H](Cc2c[nH]c3ccccc23)NC(=O)[C@H](CCCN=C(N)N)NC(=O)[C@@H](Cc2ccccc2)NC(=O)[C@H](Cc2cnc[nH]2)NC1=O  Tmax (human, plasma; subcutaneous, 0.75 mg, second dose): 0.52 h
Cn1ncc(Cl)c1-c1cc(C(=O)N[C@H](CN)Cc2ccc(F)c(F)c2)oc1Cl  Tmax (human patients, plasma; oral, 10 mg once daily, day 8, repeat dose): 2 h
Nc1ccn([C@@H]2O[C@H](CO)[C@@H](O)C2(F)F)c(=O)n1  Tmax (human cancer patients, plasma; intravenous, 1000 mg/m^2, cycle 1 day 1, given alone, median): 0.5 h
CC(C)[C@H](N)C(=O)NCCCS(=O)(=O)O  Tmax (healthy human, both sexes, plasma; oral, 172 mg capsule, median): 0.63 h
Cc1cc(C)c2c(c1)[C@@H](N(Cc1cc(C(F)(F)F)cc(C(F)(F)F)c1)c1nnn(C)n1)CCCN2C[C@H]1CC[C@H](C(=O)O)CC1  Tmax (LC-MS/MS; human, plasma; oral, 300 mg once daily, steady state): 4 h
Cc1[nH]c2ccccc2c1CCNCc1ccc(/C=C/C(=O)NO)cc1  Tmax (human, plasma; oral, 20 mg, fed, normal breakfast): 2.5 h
C[C@H]1C[C@@H]2[C@H]([C@@H](O)C[C@@]3(C)[C@H]2CC[C@]3(O)C(=O)CO)[C@@]2(C)C=CC(=O)C=C12  Tmax (refers to: total compound; human, plasma; oral, once daily, 32 mg, day 4, median): 2 h
CCOc1cc([C@@H](CS(C)(=O)=O)N2C(=O)c3cccc(NC(C)=O)c3C2=O)ccc1O[C@@H]1O[C@H](C(=O)O)[C@@H](O)[C@H](O)[C@H]1O  Tmax (healthy human controls, plasma; oral, 30 mg apremilast, matched to mild impairment): 6 h
CCn1c(C(=O)c2cc(C)cc(C#N)c2)c(C(C)C)c(=O)[nH]c1=O  Tmax (healthy humans, plasma; oral, 75 mg once daily, 7 days, median): 1.3 h
Cc1cccc(Cn2nc(C3CC3)c3c(NC(=O)c4cnc5cc(OCCN6CCN(C)CC6)ccn45)cccc32)n1  Tmax (human patients Overall, plasma; oral, 300 mg, cycle 1 day 1, median): 2 h
O=C([O-])CCCCCCCNC(=O)c1ccccc1O.[Na+]  Tmax (human, moderate hepatic impairment, plasma; oral, once daily, day 10, after dose 10, median): 0.48 h
C[C@@H](c1nc(-c2ccc(C#N)cc2)cs1)[C@](O)(Cn1cncn1)c1cc(F)ccc1F  Tmax (human, both sexes, plasma; oral, 200 mg single dose, median, with: ketoconazole 200 mg BID): 3 h
COc1ccnc(C[S+]([O-])c2nc3ccc(OC(F)F)cc3[nH]2)c1OC (stereo not drawn)  Tmax (human, obese children with GERD, plasma; oral, 1.2 mg/kg lean body weight, age 12-17 y, single dose; median): 2.5 h
NS(=O)(=O)c1cc(Cl)c(Cl)c(S(N)(=O)=O)c1  Tmax (healthy human volunteers, plasma; oral): ≤ 3 h
O=C(Cc1cccc(OC(F)(F)F)c1)Nc1ccc(CCCCc2nnc(NC(=O)Cc3ccccn3)s2)nn1  Tmax (human patients, plasma; oral, 400 mg three times daily fasted, cycle 1 day 15 steady state): 1 h
COc1cc2c(cc1OC)[C@H]1CC(=O)[C@H](CC(C)C)CN1CC2 (racemic)  Tmax (human CYP2D6 extensive metabolizers, plasma; oral, 25 mg, fasted, median): 0.67 h
N[C@]1(C(=O)O)[C@H]2[C@@H](C[C@@H]1F)[C@@H]2C(=O)O  Tmax (human, both sexes, fed, plasma; oral, 20 mg, day 14, multiple ascending dose): 3 h
Cc1cnc(-c2ccnc(C(C)(C)O)n2)cc1-n1c(C)cc(OCc2ncc(F)cc2F)c(Cl)c1=O  Tmax (human; oral, 10 to 50 mg twice daily, day 7, median across doses): 2 to 3 h
C[C@@H](Nc1cc(F)cc(F)c1)c1cc(C(=O)N(C)C)cc2c(=O)cc(N3CCOCC3)oc12  Tmax (human, plasma; oral, single dose, median): 1.2 to 4.1 h
CCS(=O)(=O)N1CC(CC#N)(n2cc(-c3ncnc4[nH]ccc34)cn2)C1  Tmax (healthy Chinese human, plasma; oral, 2 to 10 mg): 0.5 to 1 h
CNC(=O)c1ccc(-c2cnc3ncc(Cc4ccc5ncccc5c4)n3n2)cc1F  Tmax (human; oral, 400 mg twice daily, tablets): ~2 h
CC#CC(=O)NCCCC(=O)c1nc(-c2ccc(C(=O)Nc3ccccn3)cc2)c2c(N)nccn12  Tmax (human, severe hepatic impairment, plasma; oral, 50 mg acalabrutinib, single, median): 0.8 h
CO[C@H]1C[C@@H]2CC[C@@H](C)[C@@](O)(O2)C(=O)C(=O)N2CCCC[C@H]2C(=O)O[C@H]([C@H](C)C[C@@H]2CC[C@@H](OCCO)[C@H](OC)C2)CC(=O)[C@H](C)/C=C(\C)[C@@H](O)[C@@H](OC)C(=O)[C@H](C)C[C@H](C)/C=C/C=C/C=C/1C  Tmax (healthy adult human, whole blood; 0.75 mg single dose, median, with: ritonavir-containing 3D regimen): 3 h
COc1ccc2nc([S@@+]([O-])Cc3ncc(C)c(OC)c3C)[nH]c2c1  Tmax (HPLC; human CYP2C19 intermediate metabolizers, plasma; oral, 40 mg/day, day 5, pantoprazole): 1.44 ± 1.21 h
Cc1ccc(NC(=O)c2ccc(CN3CCN(C)CC3)cc2)cc1Nc1nccc(-c2cncc(-c3oncc3C)c2)n1  Tmax (older healthy human adults, plasma; oral, 12.5 mg single dose, fed, mean): 7.33 h
CNC(=O)c1cc(Oc2ccc(NC(=O)Nc3ccc(Cl)c(C(F)(F)F)c3)cc2)ccn1  Tmax (human patients, plasma; oral, dose not given, day 1, steady state, with: tanespimycin): 8.5 h
CC(=O)c1c(C)c2cnc(Nc3ccc(N4CCNCC4)cn3)nc2n(C2CCCC2)c1=O  Tmax (human; oral, 50 mg/m^2 repeated doses, day 21): 5.3 ± 2 h
COc1cc2ncnc(Nc3ccc(F)c(Cl)c3)c2cc1OCCCN1CCOCC1  Tmax (human, plasma; oral, 250 mg, median): 4 h
CCOc1ccc(Cc2cc([C@@H]3S[C@H](CO)[C@@H](O)[C@H](O)[C@H]3O)c(OC)cc2C)cc1  Tmax (human, plasma; oral, 5 mg/day, day 1, multiple dose before breakfast): 0.625 ± 0.354 h
CCCCCCCOc1ccc(CCC(N)(CO)CO)cc1C(F)(F)F.Cl  Tmax (healthy human males, plasma; oral, 0.125 to 0.75 mg, day 1, median across doses): 12 to 16 h
CNC(=O)c1ccccc1Sc1ccc2c(/C=C/c3ccccn3)n[nH]c2c1  Tmax (human, fed, plasma; oral, 5 mg single dose, median): 4.1 h
C[C@H]1[C@H](F)C[C@@H](C(=O)NCc2cc(-c3cnc(C(F)(F)F)nc3)ncc2C(F)(F)F)N1S(=O)(=O)c1ccc(F)cc1  Tmax (healthy human volunteers, fasted, plasma; oral, 25 to 600 mg single dose, range over doses): 1.5 to 24 h
CC(C)(C)c1cc(C(C)(C)C)c(NC(=O)c2c[nH]c3ccccc3c2=O)cc1O  Tmax (human cystic fibrosis patients, capillary plasma; oral, 150 mg twice daily, steady state): 5 h
COc1cc2c(Oc3ccc4[nH]c(C)cc4c3F)ncnc2cc1OCCCN1CCCC1  Tmax (human patients, plasma; oral, 30 mg, cycle 2 day 1, median, with: pemetrexed): 4 h
C#C[C@]1(CO)O[C@@H](n2cnc3c(N)nc(F)nc32)C[C@@H]1O  Tmax (human, plasma; oral, 30 mg once weekly, week 3): 1 h
COC(=O)c1ccc2c(c1)NC(=O)/C2=C(\Nc1ccc(N(C)C(=O)CN2CCN(C)CC2)cc1)c1ccccc1  Tmax (human, moderate liver impairment, plasma; oral, 100 mg twice daily, steady state): 3 h
CCCCNC(=O)NS(=O)(=O)c1ccc(C(=O)O)cc1  Tmax (human; oral, 500 mg): ~4 h
CC(C)NC[C@@H](C(=O)N1CCN(c2ncnc3c2[C@H](C)C[C@H]3O)CC1)c1ccc(Cl)cc1  Tmax (human, Moderate hepatic function, plasma; oral, 100 mg single dose, NCI classification, median): 1 h
COc1ccnc(C[S+]([O-])c2nc3ccc(OC(F)F)cc3[nH]2)c1OC (stereo not drawn)  Tmax (HPLC; human CYP2C19 poor metabolizers, plasma; oral, 40 mg/day, day 5, esomeprazole): 1.67 ± 0.57 h
CC(O)c1cc(C(=O)N[C@@H](C)Cn2ccc(-c3ccc(C#N)c(Cl)c3)n2)[nH]n1 (stereo partly drawn)  Tmax (human, male, plasma; oral, 600 mg, day 1, with food, single dose): ~6 h
Cc1[nH]c(/C=C2\C(=O)Nc3ccccc32)c(C)c1CCC(=O)O  Tmax (human patients; oral, 500 mg/m^2 twice daily, after meal, dose 55): 3.33 ± 2.31 h
COCCCCn1c(C(=O)N(CC(C)C)[C@@H]2CNC[C@H](C(=O)N3CCOCC3)C2)nc2ccccc21  Tmax (non-elderly human, plasma; oral, 80 mg once daily, day 1): 2 h
